Measurements pooled from the literature.
Parts stem from different laboratories: compare values within a part only.
Chain of UniProt Q86Y07 (whole entry, looked up): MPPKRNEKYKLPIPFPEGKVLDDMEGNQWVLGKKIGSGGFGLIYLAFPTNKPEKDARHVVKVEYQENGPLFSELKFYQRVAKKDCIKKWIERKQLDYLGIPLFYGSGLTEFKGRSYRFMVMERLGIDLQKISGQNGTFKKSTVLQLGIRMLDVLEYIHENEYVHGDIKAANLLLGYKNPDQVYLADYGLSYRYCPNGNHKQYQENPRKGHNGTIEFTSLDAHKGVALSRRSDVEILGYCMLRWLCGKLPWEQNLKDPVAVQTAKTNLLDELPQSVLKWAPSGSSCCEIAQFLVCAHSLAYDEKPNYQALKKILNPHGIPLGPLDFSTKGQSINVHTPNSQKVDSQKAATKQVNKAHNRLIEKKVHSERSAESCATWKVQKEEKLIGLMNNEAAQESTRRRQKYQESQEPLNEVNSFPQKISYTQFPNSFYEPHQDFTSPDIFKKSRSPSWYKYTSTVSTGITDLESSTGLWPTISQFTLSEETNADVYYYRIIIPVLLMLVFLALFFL
Chain of UniProt Q15303 (whole entry, looked up): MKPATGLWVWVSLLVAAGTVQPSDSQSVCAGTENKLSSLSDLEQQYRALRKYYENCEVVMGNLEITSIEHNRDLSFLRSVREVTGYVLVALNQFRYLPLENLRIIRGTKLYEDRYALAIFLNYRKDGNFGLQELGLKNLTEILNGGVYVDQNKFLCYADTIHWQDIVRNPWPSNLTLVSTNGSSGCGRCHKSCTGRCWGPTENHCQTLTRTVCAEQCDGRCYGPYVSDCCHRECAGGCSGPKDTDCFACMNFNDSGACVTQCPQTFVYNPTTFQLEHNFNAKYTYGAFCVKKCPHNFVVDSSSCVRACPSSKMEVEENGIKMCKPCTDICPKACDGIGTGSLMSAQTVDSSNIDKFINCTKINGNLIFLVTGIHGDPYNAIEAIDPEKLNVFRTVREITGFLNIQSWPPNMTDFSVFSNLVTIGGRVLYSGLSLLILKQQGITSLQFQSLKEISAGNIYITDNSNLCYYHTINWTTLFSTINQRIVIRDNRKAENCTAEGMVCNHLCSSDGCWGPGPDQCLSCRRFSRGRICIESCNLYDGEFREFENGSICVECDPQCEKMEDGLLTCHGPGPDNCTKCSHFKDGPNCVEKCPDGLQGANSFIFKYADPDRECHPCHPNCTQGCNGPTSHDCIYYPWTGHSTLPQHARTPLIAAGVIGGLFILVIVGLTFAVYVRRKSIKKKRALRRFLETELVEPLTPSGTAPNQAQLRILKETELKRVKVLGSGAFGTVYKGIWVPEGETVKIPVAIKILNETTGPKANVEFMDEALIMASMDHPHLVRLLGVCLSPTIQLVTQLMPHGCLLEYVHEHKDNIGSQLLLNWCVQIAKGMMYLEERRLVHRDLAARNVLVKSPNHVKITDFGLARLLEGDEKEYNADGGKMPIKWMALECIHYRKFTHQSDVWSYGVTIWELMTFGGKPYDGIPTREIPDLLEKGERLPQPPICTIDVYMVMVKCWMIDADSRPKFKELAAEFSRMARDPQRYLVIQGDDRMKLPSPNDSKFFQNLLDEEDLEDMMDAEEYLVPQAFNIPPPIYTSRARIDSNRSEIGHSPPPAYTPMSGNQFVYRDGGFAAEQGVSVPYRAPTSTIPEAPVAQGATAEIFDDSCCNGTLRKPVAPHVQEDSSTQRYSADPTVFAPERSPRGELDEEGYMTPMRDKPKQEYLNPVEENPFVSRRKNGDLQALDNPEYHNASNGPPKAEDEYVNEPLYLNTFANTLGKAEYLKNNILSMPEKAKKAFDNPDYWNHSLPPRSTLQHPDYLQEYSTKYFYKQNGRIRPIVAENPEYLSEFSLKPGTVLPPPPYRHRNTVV
Chain of UniProt Q9H0K1 (whole entry, looked up): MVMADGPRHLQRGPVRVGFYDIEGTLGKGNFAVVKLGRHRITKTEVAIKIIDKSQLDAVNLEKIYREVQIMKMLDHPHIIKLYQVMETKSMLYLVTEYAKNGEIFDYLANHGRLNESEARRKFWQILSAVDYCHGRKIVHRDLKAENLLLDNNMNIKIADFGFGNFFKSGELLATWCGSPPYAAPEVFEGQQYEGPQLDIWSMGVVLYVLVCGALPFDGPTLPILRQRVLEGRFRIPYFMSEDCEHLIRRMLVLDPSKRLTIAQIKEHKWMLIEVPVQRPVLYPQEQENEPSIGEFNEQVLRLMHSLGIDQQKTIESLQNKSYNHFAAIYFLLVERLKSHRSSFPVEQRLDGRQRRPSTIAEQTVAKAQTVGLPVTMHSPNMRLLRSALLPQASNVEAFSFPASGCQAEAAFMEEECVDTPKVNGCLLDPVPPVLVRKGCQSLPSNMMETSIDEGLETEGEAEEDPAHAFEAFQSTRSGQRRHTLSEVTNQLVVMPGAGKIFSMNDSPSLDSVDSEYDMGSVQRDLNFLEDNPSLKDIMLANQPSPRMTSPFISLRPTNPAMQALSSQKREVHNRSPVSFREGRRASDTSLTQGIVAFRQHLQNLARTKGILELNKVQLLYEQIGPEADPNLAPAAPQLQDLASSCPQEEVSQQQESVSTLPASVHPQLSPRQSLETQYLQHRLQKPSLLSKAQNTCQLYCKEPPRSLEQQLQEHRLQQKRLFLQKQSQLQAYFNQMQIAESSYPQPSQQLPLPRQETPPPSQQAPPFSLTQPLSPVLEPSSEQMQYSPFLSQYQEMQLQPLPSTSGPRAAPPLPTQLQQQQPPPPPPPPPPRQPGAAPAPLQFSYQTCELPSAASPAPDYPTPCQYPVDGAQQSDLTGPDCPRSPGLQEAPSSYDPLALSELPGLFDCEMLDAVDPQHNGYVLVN
Chain of UniProt Q00526 (whole entry, looked up): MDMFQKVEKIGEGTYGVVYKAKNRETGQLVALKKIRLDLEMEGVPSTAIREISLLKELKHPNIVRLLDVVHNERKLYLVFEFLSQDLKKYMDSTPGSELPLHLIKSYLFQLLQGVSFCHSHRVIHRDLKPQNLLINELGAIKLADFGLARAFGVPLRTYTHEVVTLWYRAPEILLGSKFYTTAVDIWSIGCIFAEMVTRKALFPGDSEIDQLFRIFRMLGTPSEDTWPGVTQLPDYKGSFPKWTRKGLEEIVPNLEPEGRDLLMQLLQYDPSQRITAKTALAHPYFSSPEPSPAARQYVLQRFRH

Study 1
Compound: O=C(O)[C@@H]1[C@@H](Cn2nnc3ccccc3c2=O)CC[C@H]1C(=O)c1ccc(OCCC2CCOCC2)cc1
Effect on: cell-free assay
Technique: competition with immobilised ligand
Tested at: 1 µM
Measurement: remaining binding
MAPK4 (Homo sapiens, UniProt P31152): 100%
CDK3 (Homo sapiens, UniProt Q00526): 100%
HCK (Homo sapiens, UniProt P08631): 100%
EGFR (Homo sapiens, UniProt P00533, L858R/T790M): 76%
SIK2 (Homo sapiens, UniProt Q9H0K1): 91%
VRK2 (Homo sapiens, UniProt Q86Y07): 80%
WNK1 (Homo sapiens, UniProt Q9H4A3): 100%
ERBB4 (Homo sapiens, UniProt Q15303): 100%
CSNK1E (Homo sapiens, UniProt P49674): 90%

Study 2
Cell line: A-375
Tested at: 100 µM
Time: 36 h
Measurement: viability
O=C(O)c1cc(=O)c2ccccc2o1: 114%
COc1ccc(C(Cl)=C(c2ccc(OC)cc2)c2ccc(OC)cc2)cc1: 84.3%
NC(CO)C(=O)NNCc1ccc(O)c(O)c1O (centres unmarked): 25%
Nc1ncnc2c1ncn2[C@@H]1O[C@H](COP(=O)(O)O)[C@@H](O)[C@H]1O: 113%
CS(=O)(=O)OCCCCOS(C)(=O)=O: 98.1%
Cc1ccc(-c2cc(C(F)(F)F)nn2-c2ccc(S(N)(=O)=O)cc2)cc1: -3.05%
CC1(C)C(C=C(Cl)Cl)C1C(=O)OCc1cccc(Oc2ccccc2)c1 (centres unmarked): 94.1%

Study 3
Target: Myosin light chain kinase, smooth muscle (MYLK, Homo sapiens, UniProt Q15746)
Chain of UniProt Q15746 (whole entry, looked up): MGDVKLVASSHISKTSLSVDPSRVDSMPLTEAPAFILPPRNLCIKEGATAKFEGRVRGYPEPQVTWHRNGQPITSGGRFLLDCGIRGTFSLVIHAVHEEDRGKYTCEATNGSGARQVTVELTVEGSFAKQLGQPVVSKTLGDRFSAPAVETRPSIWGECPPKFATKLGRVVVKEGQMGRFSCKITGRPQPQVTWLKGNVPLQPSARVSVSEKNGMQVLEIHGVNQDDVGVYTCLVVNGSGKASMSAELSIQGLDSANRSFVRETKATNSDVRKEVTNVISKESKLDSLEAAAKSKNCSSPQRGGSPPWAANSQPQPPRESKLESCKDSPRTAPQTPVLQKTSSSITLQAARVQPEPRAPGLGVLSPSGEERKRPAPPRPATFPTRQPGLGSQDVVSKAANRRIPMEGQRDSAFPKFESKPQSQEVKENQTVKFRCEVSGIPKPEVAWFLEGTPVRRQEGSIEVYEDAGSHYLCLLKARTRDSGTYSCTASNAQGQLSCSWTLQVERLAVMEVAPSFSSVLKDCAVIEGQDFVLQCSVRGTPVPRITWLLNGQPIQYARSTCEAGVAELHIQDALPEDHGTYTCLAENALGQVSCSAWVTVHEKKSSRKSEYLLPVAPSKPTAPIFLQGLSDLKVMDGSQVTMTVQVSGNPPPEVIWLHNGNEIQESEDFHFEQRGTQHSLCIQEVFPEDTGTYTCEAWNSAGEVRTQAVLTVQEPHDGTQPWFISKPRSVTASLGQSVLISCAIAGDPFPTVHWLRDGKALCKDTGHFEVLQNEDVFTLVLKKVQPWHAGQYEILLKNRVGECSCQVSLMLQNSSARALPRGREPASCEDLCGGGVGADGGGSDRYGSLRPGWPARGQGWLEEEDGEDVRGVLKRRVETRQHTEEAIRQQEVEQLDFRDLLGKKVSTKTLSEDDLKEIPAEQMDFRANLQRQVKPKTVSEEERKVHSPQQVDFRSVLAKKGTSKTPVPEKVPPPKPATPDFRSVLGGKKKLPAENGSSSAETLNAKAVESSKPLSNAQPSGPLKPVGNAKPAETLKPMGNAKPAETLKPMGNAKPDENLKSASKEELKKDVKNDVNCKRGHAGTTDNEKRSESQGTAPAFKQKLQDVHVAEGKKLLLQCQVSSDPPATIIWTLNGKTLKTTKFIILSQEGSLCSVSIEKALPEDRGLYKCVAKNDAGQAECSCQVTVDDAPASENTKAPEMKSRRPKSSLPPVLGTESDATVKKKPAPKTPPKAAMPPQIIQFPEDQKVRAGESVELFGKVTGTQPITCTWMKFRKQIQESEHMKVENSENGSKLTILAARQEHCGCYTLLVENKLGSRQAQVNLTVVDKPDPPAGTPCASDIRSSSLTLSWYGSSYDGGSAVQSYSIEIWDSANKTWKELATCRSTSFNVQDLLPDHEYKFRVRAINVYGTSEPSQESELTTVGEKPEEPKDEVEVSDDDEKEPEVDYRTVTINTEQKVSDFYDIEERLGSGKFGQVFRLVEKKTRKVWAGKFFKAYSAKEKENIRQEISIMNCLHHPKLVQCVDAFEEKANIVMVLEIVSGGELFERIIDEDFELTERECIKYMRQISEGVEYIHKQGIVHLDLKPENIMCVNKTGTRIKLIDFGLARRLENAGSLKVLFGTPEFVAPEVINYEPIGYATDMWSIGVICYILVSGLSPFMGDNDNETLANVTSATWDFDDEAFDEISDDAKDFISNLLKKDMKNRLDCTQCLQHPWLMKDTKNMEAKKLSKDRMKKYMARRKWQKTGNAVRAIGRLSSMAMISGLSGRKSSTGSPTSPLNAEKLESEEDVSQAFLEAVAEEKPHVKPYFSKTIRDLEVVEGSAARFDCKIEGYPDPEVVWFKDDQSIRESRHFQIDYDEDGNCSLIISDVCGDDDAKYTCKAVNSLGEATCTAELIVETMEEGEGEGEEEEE
Effect on: enzyme activity
Mode: inhibitor
Tested at: 0.5 µM
Relative to: control
Measurement: remaining activity
Cc1cc(Nc2nc(-c3ccccc3)nc3ccccc23)n[nH]1: 60.2%
O=C1NC(=O)C(c2c[nH]c3ccccc23)=C1c1c[nH]c2ccccc12: 74.4%
Fc1ccc(-c2nc3n(c2-c2ccncc2)CCS3)cc1: 105%
Nc1nccc(-c2c(-c3ccc(F)cc3)ncn2C2CCNCC2)n1: 99.8%
CC#CC(=O)Nc1cc2c(Nc3ccc(F)c(Cl)c3)ncnc2cn1: 98.8%
CC(=O)c1ccc(N2CCOCC2)cc1O: 91.1%
Nc1nc(Nc2ccc(S(N)(=O)=O)cc2)nn1C(=O)c1c(F)cccc1F: 80%
NC(=O)c1ccc(N(C(N)=O)c2c(F)cccc2F)nc1-c1ccc(F)cc1F: 101%
O=S(=O)(NCCNC/C=C/c1ccc(Br)cc1)c1cccc2cnccc12: 90.8%
Cc1cncc2cccc(S(=O)(=O)N3CCCN(C(=O)CN)C[C@@H]3C)c12: 103%
CSc1nc(-c2ccnc(N[C@@H](C)c3ccccc3)c2)c(-c2ccc(F)cc2)[nH]1 (racemic): 100%
Oc1ccc(Nc2nc(-c3ccc(Cl)cc3)cs2)cc1: 104%

Further values, each from its own experiment
CC(=O)N[C@@H](Cc1c[nH]c2ccccc12)C(=O)N[C@@H](CCC(=O)C=[N+]=[N-])C(=O)OC(C)C — GI inflammation score (histopathology; mouse C57BL/6 CES1-/-, GI tissue; subcutaneous, 0.8 mg/kg; direction not given): 0

A few entries again (study 3):
Nc1nccc(-c2c(-c3ccc(F)cc3)ncn2C2CCNCC2)n1: 99.8%
CC#CC(=O)Nc1cc2c(Nc3ccc(F)c(Cl)c3)ncnc2cn1: 98.8%
CC(=O)c1ccc(N2CCOCC2)cc1O: 91.1%
Nc1nc(Nc2ccc(S(N)(=O)=O)cc2)nn1C(=O)c1c(F)cccc1F: 80%
NC(=O)c1ccc(N(C(N)=O)c2c(F)cccc2F)nc1-c1ccc(F)cc1F: 101%
